Results collected from several papers.
Lines come from different studies, so protocols differ. Values joined by “and” are separate records of one study, mostly repeats; a detail may differ. Numbers after ± are the reported error.

Compound | assay | system | setting | scale | quantity | value
COc1cc(O)c(CC=C(C)C)c(O)c1C(=O)/C=C/c1ccc(O)cc1 | – | male Tac:SW mice, conventional and germ-free | in high-fat diet, dose not given, 10 weeks | reference: high-fat diet alone | hepatic and muscle lipid accumulation | no effect
O=C(COP(=O)(O)O)[C@@H](O)[C@H](O)[C@H](O)COP(=O)(O)O | binding, equilibrium dialysis LC-MS | – | 5 µM, thermostabilized A2AR-BRIL construct | reference: no-protein control, direction not given | z-scored log2 fold change | -0.421
Cc1ccc(C(=O)Nc2ccnc(S(N)(=O)=O)c2)c(N2CCCC(F)(F)CC2)n1 | behavioural test | rhesus macaque | oral, 1 to 10 mg/kg, 4 h before testing | reference: vehicle | capsaicin-sensitized response | decreased
CN(C)C(=O)Oc1cccc([N+](C)(C)C)c1 | neuromuscular block reversal | rat | dose not given, 20 (unit not given), with: cisatracurium | reference: T1 twitch | train-of-four ratio | 98.9
C[C@@H](O)CCOC(=O)C[C@@H](C)O | item: C7-DC acylcarnitine | human, plasma | 60 min, log2-transformed values | – | metabolite level | -5.5 ± 0.6 µmol/L
Cc1noc(C)c1-c1cc(C(O)(c2ccccn2)c2ccccn2)c2nc(C3CC3)[nH]c2c1 | item: HEXIM1 expression | human, peripheral blood | 4 mg, day 8, 1599 study | – | maximum induction | 64.6%
Cn1cc(Nc2nccc(-c3ccc4c(c3)CN(C3COC3)CC[C@H]4NC(=O)c3cn(C(C)(C)C)nn3)n2)cn1 | item: PFKFB4 signaling pathway | splenic B cells, mice | 30 mg/kg, IgD-activated in vivo | reference: vehicle, direction not given | pathway activation z-score | 1.13
OC(CCN1CCCCC1)(c1ccccc1)C1CC2C=CC1C2 (stereo not shown) | resting-state EEG | healthy elderly humans | oral, 2 mg, eyes open, LS mean | – | EEG Beta2-power Pz-O1 | 0.9 µV²
CN(C(=O)n1cnc(-c2ccc[n+]([O-])c2)c1)C1CCCCC1 | – | mouse, formalin paw test | oral, 0.3 mg/kg, 225 min before formalin, late phase | direction not given | licking score | 13.2
NC(=O)c1cnc2[nH]ccc2c1N[C@@H]1[C@@H]2CC3C[C@H]1C[C@@](O)(C3)C2 | CD8+ central memory T cells, flow cytometry | Caucasian humans, peripheral blood | 200 mg single dose | reference: baseline | percent change | 0.53%
C[C@H]1C[C@H]2CSC(N)=N[C@@]2(c2nc(NC(=O)c3ccc(OC(F)F)cn3)cs2)CO1 | item: Aβx-40 | healthy adults, plasma | 275 mg once daily, day 4 | reference: placebo | percent change from baseline | -73.8%
N#Cc1ccc2c(c1)[C@H]1CCCN(C(=O)c3ccc4[nH]cnc4c3)[C@H]1C2 | meal tolerance test | human, Phase II trial | 80 mg once daily, day 28, AUC0-2 h, adjusted mean | reference: baseline | insulin AUC change | 150 pmol/h/L
O=C(O)/C=C/CC(=O)O | binding, equilibrium dialysis LC-MS | – | 5 µM, thermostabilized A2AR-BRIL construct | reference: no-protein control, direction not given | z-scored log2 fold change | 0.299
N#Cc1ccn2c(-c3ccncc3)c(-c3ccc(F)cc3)nc2c1 | kinase binding, competitor, MIB/MS competition, item: ATG1 | Candida albicans cell lysate | 1 µM | reference: DMSO | log2 fold change | -0.104
CC(C)c1ncc(C(=O)N2CCOC3(CCN(Cc4ccc(F)c(CCNC[C@H](O)c5ccc(O)c6[nH]c(=O)sc56)c4)CC3)C2)s1 | – | COPD patients | 58 µg single, 24 h, day 1 | reference: baseline, placebo-corrected | trough FEV1 change | 48 mL
c1ccc(-c2n[nH]cc2-c2ccnc3ccccc23)nc1 | kinase binding, competitor, MIB/MS competition, item: MCK1 | Candida albicans cell lysate | 10 µM | reference: DMSO | log2 fold change | 0.8
COc1cc(CNC(=O)CCCC/C=C/C(C)C)ccc1O | nociceptive behaviour | mouse | intraplantar, 1.6 µg | – | licking duration | 77.8 ± 3.8 s
CC1(C)CCC(c2ccc(Cl)cc2)=C(CN2CCN(c3ccc(C(=O)NS(=O)(=O)c4ccc(N[C@H](CCN5CCOCC5)CSc5ccccc5)c(S(=O)(=O)C(F)(F)F)c4)cc3)CC2)C1 | cell killing | primary canine neoplastic T cells, dog 16 | 24 h | – | EC50 | 143 nM
O=C(O)CNC(=O)Cc1ccccc1 | – | ventricular cardiomyocytes, C57BL/6 mouse | dose not given, 0.532 s | – | sarcomere length | 1.62 µm
CC(C)(COP(=O)(O)OP(=O)(O)OC[C@H]1O[C@@H](n2cnc3c(N)ncnc32)[C@H](O)[C@@H]1O)[C@@H](O)C(=O)NCCC(=O)NCCS | binding, equilibrium dialysis LC-MS | – | 5 µM, thermostabilized A2AR-BRIL construct | reference: no-protein control, direction not given | z-scored log2 fold change | -0.62
C[C@@H]1O[C@@H](Oc2ccc(CC#N)cc2)[C@H](O)[C@H](O)[C@H]1O | ABTS radical | – | 300 µg/mL | – | radical scavenging | 19.4 ± 1.94%
O=C1N(Cc2ccccc2Cl)c2ccccc2C12NN=C(c1ccccc1)S2 (stereo not shown) | – | A549 cells, nude mouse, orthotopic model | 40 mg/kg | reference: placebo | lung tumour burden | decreased
C[C@H](CS)C(=O)N1CCC[C@H]1C(=O)O | – | male ICR-CD1 mice | ip, 50 mg/kg, with: acetic acid 1% | – | writhing count | 59 and 52 and 67 and 55 and 51 and 62

Compound | assay | system | setting | scale | quantity | value
C[C@H](Oc1ccc(Br)cc1-c1ccon1)C(=O)O | last response peak | human, tibialis anterior muscle | 1200 mg, 15 Hz, single ascending dose | – | difference from placebo | -7.34%
COc1ncc(-c2nc3c(n2C(C)C)[C@H](c2ccc(Cl)cc2)N(c2cc(Cl)cn(C)c2=O)C3=O)c(OC)n1 | International Working Group criteria | human acute myeloid leukemia patients | dose not given, response Unknown, all patients | – | best overall response | 3.3%
CC(=O)N[C@@H]1[C@@H](O)[C@H](O)[C@@H](CO)O[C@@H]1O | binding, equilibrium dialysis LC-MS | – | 5 µM, thermostabilized A2AR-BRIL construct | reference: no-protein control, direction not given | z-scored log2 fold change | 0.21
CO[C@H]1CC[C@H](N2C(=O)CNc3ncc(-c4ccc(C(C)(C)O)nc4)nc32)CC1 | flow cytometry | stimulated T cells, human, blood | 45 mg single dose, 3 h, mean | reference: baseline | p4EBP1 change from baseline | -54.7%
Cc1cn([C@H]2C[C@H](O)[C@@H](COP(=O)(O)O)O2)c(=O)[nH]c1=O | binding, equilibrium dialysis LC-MS | – | 5 µM, thermostabilized A2AR-BRIL construct | reference: no-protein control, direction not given | z-scored log2 fold change | 0.653
Cn1cc([C@H]2C[C@H]3CSC(N)=N[C@@]3(c3ccc(F)cc3F)CO2)cn1 | item: Aβx-40 | Mus musculus wild-type, cerebrospinal fluid | subcutaneous, 10 mg/kg, 3 h | – | Aβ40 level | 0.6 ng/mL
CC(C)NCC(O)c1ccc(O)c(O)c1 (stereo not shown) | – | ventricular cardiomyocytes, C57BL/6 mouse | dose not given, 0.364 s | – | sarcomere length | 1.72 µm
Cc1ccc([C@@H]2O[C@H](CO)[C@@H](O)[C@H](O)[C@H]2O)cc1Cc1ccc(-c2ccc(F)cc2)s1 | – | Japanese type 2 diabetes patients | 100 mg, day 2 | reference: day 1 | change in fasting serum insulin | -1 µU/mL
C[C@H](NC(=O)c1c(C(F)F)nn(C)c1Oc1cccc(C(F)(F)F)c1)c1ccc(C(=O)O)cc1 | irRECIST | human, advanced tumours | 750 mg | – | objective response rate | 0%
OCc1ccc(O)cc1 | DPPH radical | – | 300 µg/mL | – | radical scavenging | 16 ± 2.55%
COc1ccc(-c2cncc(N[C@@H](C)c3cccc(NC(=O)c4cncc(C)c4)c3)n2)cc1OC | item: rno-miR-342-3p | rat SU5416/hypoxia model, lung | dose not given, unit not given | reference: SU5416/hypoxia vehicle | delta delta Ct | 0.321
O=C[C@H](O)[C@H](O)[C@H](O)COP(=O)(O)O | binding, equilibrium dialysis LC-MS | – | 5 µM, thermostabilized A2AR-BRIL construct | reference: no-protein control, direction not given | z-scored log2 fold change | 0.268
CCN1CCN(Cc2ccc(Nc3ncc(F)c(-c4cc(F)c5nc6n(c5c4)[C@H](C)CCC6)n3)nc2)CC1 | – | human advanced solid tumours | 300 mg, phase Ia monotherapy RECIST 1.1 | – | objective response rate | 0%
NC(=O)NCCCC[C@H](N)C(=O)O | binding, equilibrium dialysis LC-MS | – | 5 µM, thermostabilized A2AR-BRIL construct | reference: no-protein control, direction not given | z-scored log2 fold change | 0.277
COc1cc2cc(-c3ccc(CC(=O)Nc4cc(C(C)(C)C(F)(F)F)no4)cn3)cnc2cc1OC | – | human RET-mutant medullary thyroid cancer | 75 mg, phase I, RECIST 1.1 | – | objective response rate | 29%
COCCOC(=O)C1=C(C)NC(C)=C(C(=O)OC(C)C)C1c1cccc([N+](=O)[O-])c1 (stereo not shown) | whole-cell current clamp | DRG neurons, naive rat | dose not given, 4 h | – | action potential threshold | -38.9 mV and -17.2 mV and -30.8 mV and -31 mV and -21.7 mV and -37.6 mV
CNCc1cc(-c2ccccc2F)n(S(=O)(=O)c2cccnc2)c1 | histamine-stimulated acid secretion | pylorus-ligated rat | oral, 2 mg/kg, with: histamine | – | total acid output | 357 ± 44.9 µEq/3 h
OCC(O)CO | ELISA | male Gpd2 knockout mice, serum | oral in drinking water, 5 % w/v, 2 days | – | plasma FGF21 level | 806 pg/mL and 482 pg/mL and 491 pg/mL and 864 pg/mL and 939 pg/mL
C=CCn1c(=O)c2cnc(Nc3ccc(N4CCN(C)CC4)cc3)nc2n1-c1ccc2c(n1)[C@@](O)(CC)CC2 | – | MCF7 xenograft, BALB/c nude mice | oral, 80 mg/kg, day 29, once daily days 1-22 and 26-28 | – | tumour growth inhibition | 152%
CC(C)(COP(=O)(O)OP(=O)(O)OC[C@H]1O[C@@H](n2cnc3c(N)ncnc32)[C@H](O)[C@@H]1OP(=O)(O)O)[C@@H](O)C(=O)NCCC(=O)NCCS | binding, equilibrium dialysis LC-MS | – | 5 µM, thermostabilized A2AR-BRIL construct | reference: no-protein control, direction not given | z-scored log2 fold change | -1.87
O=P(O)(O)C(Cl)(Cl)P(=O)(O)O | immunostaining | mouse, SAH model, hippocampal fissure | dose not given, day 1 | reference: total area | Iba1-positive area | 0.59%
NC(=O)NCc1ccc(O)cc1 | ABTS radical | – | 300 µg/mL | – | radical scavenging | 53.8 ± 1.7%
C[C@@H](NC(=O)N1C(=O)[C@H](Cc2ccnc(N)c2)[C@H]1C(=O)O)C1CCCCC1 | – | human | iv infusion, 2.25 mg/kg/h, 24 h, unit not given | reference: baseline | ACT Emax | 1.07

Some of these lines once more:
Compound | assay | system | setting | scale | quantity | value
O=C(O)/C=C/CC(=O)O | binding, equilibrium dialysis LC-MS | – | 5 µM, thermostabilized A2AR-BRIL construct | reference: no-protein control, direction not given | z-scored log2 fold change | 0.299
N#Cc1ccn2c(-c3ccncc3)c(-c3ccc(F)cc3)nc2c1 | kinase binding, competitor, MIB/MS competition, item: ATG1 | Candida albicans cell lysate | 1 µM | reference: DMSO | log2 fold change | -0.104
CC(C)c1ncc(C(=O)N2CCOC3(CCN(Cc4ccc(F)c(CCNC[C@H](O)c5ccc(O)c6[nH]c(=O)sc56)c4)CC3)C2)s1 | – | COPD patients | 58 µg single, 24 h, day 1 | reference: baseline, placebo-corrected | trough FEV1 change | 48 mL
